Measurements pooled from the literature.
± gives the spread as reported. In brackets after ≈: the same amount, converted by molar mass.

Cn1c(-c2ccc(C(N)=O)cc2F)nnc1C(C)(C)Oc1c(F)cc(Cl)cc1F  AUC(0-inf) (elderly non-Japanese subjects, plasma; oral, 20 mg single dose, day 1, mean): 3150 ng·h/mL
Nc1ccn([C@@H]2O[C@H](CO)[C@@H](O)C2(F)F)c(=O)n1  measured concentration (THU-treated rat plasma; 12.00 ng/mL, -80 to 20 °C, three freeze-thaw cycles, low QC): 10.6 ± 0.7 ng/mL
NCCCC[C@@H]1NC(=O)[C@@H](Cc2c[nH]c3ccccc23)NC(=O)[C@H](c2ccccc2)NC(=O)[C@@H]2C[C@@H](OC(=O)NCCN)CN2C(=O)[C@H](Cc2ccccc2)NC(=O)[C@H](Cc2ccc(OCc3ccccc3)cc2)NC1=O  beta half-life (radioimmunoassay; healthy human male volunteers, plasma; subcutaneous, 100 µg): 8.1 ± 1.4 h
CC[C@H](C)[C@@H]1NC(=O)[C@H](Cc2ccc(O)cc2)NC(=O)[C@@H](N)CSSC[C@@H](C(=O)N2CCC[C@H]2C(=O)N[C@@H](CC(C)C)C(=O)NCC(N)=O)NC(=O)[C@H](CC(N)=O)NC(=O)[C@H](CCC(N)=O)NC1=O  AUC above baseline (microdialysis, radioimmunoassay; C57BL/6J male mice, wild type, hippocampus extracellular fluid; intranasal, 12 µg, incremental area over baseline): 85.4 ± 53.4 pg·30 min/sample
COc1ccc(-c2cc(=O)c3c(O)c(OC)c(OC)c(OC)c3o2)cc1OC  tissue to peel content ratio (C57BL/6 mouse, male, testes; oral, 1% w/w in diet, 6 weeks, orange peel extract diet; reference: content in orange peel): 0.234%
Cn1cc(-c2ccc3nnc(Sc4ccc5ncccc5c4)n3n2)cn1  CLint (cynomolgus monkey male, hepatic S9; 1 µM, pH 7.4, with: without NADPH): 26.9 ± 4.35 mL/min/kg
O=C(CCc1ccccc1)N[C@H]1CNC1=O  compound remaining (chemical stability; PBS; 1 µM, 24 h, pH 7.4): 92%
CCCC[C@@H]1NC(=O)[C@@H](NC(=O)[C@H](CCC(=O)O)NC(=O)CNC(=O)CN2CCN(CC(=O)O)CCN(CC(=O)O)CCN(CC(=O)O)CC2)CCCCNC(=O)C[C@@H](C(N)=O)NC(=O)[C@H](C(C)C)NC(=O)[C@@H]2CCCN2C(=O)[C@H](CCCNC(=N)N)NC(=O)CNC(=O)[C@H](Cc2c[nH]c3ccccc23)NC(=O)[C@H](CCCNC(=N)N)NC(=O)[C@@H](Cc2ccccc2)NC(=O)[C@H](Cc2c[nH]cn2)NC(=O)[C@H](CCC(=O)O)NC1=O [indium-111 labelled]  tissue uptake (C57 mice, B16/F10 lung metastatic melanoma, pancreas; intravenous, 0.037 MBq, 24 h): 0.04 ± 0.02 %ID/g
N=C(N)NCCC[C@H](N)C(=O)N1CCC[C@H]1C(=O)N1CCC[C@H]1C(=O)NCC(=O)N[C@@H](Cc1ccccc1)C(=O)N[C@@H](CO)C(=O)N1CCC[C@H]1C(=O)N[C@@H](Cc1ccccc1)C(=O)O  change in serum concentration (LC-MS/MS; human serum; concentration not given, 4 h, room temperature, tube with gel separator; reference: initial concentration): -82.9 ± 3%
C[C@H](Cn1cnc2c(N)ncnc21)OCP(=O)(O)O  clearance increase (population PK model, item: tenofovir; human, HIV patients, plasma; oral, tenofovir alafenamide dosed, Black and Hispanic patients; reference: White and Asian patients): 12%
C[C@H]1CO[C@@H]2Cn3cc(C(=O)NCc4ccc(F)cc4F)c(=O)c(O)c3C(=O)N12  maximum ΔΔQTcF (Holter monitoring; healthy human subjects; oral, 150 mg every 12 h for 3 doses, 8 h; reference: placebo): 2.62 ± 1.59 ms
CC(C)=CCC[C@](C)(O[C@@H]1O[C@H](CO)[C@@H](O)[C@H](O)[C@H]1O)[C@H]1CC[C@]2(C)[C@@H]1[C@H](O)C[C@@H]1[C@@]3(C)CC[C@H](O[C@@H]4O[C@H](CO)[C@@H](O)[C@H](O)[C@H]4O[C@@H]4O[C@H](CO)[C@@H](O)[C@H](O)[C@H]4O)C(C)(C)[C@@H]3CC[C@]12C  AUC(0-36 h) (Sprague Dawley rat, male, plasma; oral, 42 mg/kg, in white ginseng extract): 25900 ± 8800 ng·h/mL
CCCSc1nc(N[C@@H]2C[C@H]2c2ccc(F)c(F)c2)c2nnn([C@@H]3C[C@H](OCCO)[C@@H](O)[C@H]3O)c2n1  AUC (Wistar Han rat, male, plasma; oral, 60 mg/kg/day, day 1, carcinogenicity study): 85.5 µM·h
CC#CC(=O)N1CCC[C@H]1c1nc(-c2ccc(C(=O)Nc3ccccn3)cc2)c2c(N)nccn12  AUC increase (moderate hepatic impairment (Child-Pugh B), plasma; oral, 50 mg single; reference: healthy subjects): 1.3 fold
CC(=O)N[C@H](CCNC(=O)c1cc(NC(=O)c2cc(NC(=O)c3cc(NC(=O)c4nccn4C)cn3C)cn2C)cn1C)C(=O)Nc1cn(C)c(C(=O)Nc2cc(C(=O)Nc3cc(C(=O)Nc4cc(C(=O)NCCCN(C)CCCN[14C](=O)c5cccc([14C](=O)O)c5)n(C)c4)n(C)c3)n(C)c2)n1  tissue concentration (NSG mouse, male, LNCaP xenograft, liver; intraperitoneal, 20 nmol/animal, 7 days): 0.27 mg/kg
CCN(c1cc(-c2ccc(CN3CCOCC3)cc2)cc(C(=O)NCc2c(C)cc(C)[nH]c2=O)c1C)C1CCOCC1  discontinuation rate (Japanese patients, relapsed or refractory B-NHL; oral, 800 mg twice daily, tongue squamous cell carcinoma, not treatment related; reference: patients): 14.3%
O=C1CN(/N=C/c2ccc(-c3ccc([N+](=O)[O-])cc3)o2)C(O)=N1  hepatocyte vacuolization score (Sprague-Dawley rat, male, liver; oral, 100 mg/kg, 24 h, single low dose; direction not given): 0
Cc1[nH]c(=O)c(CNC(=O)c2ccc(Cl)nc2)c2c1CCCC2  kinetic solubility (U-HPLC; 20% DMSO in water): 213 µg/mL (≈ 643 µM)
CNCc1ccc(-c2[nH]c3cc(F)cc4c3c2CCNC4=O)cc1  Cmax (human patients, plasma; oral, 240 mg twice daily, day 1, arithmetic mean): 219 ng/mL
C[C@]12CC[C@@H]3c4ccc(O)cc4CC[C@H]3[C@@H]1C[C@@H](O)[C@@H]2O  maximum serum concentration (GC-MS; breast cancer women on NSAI, serum; vaginal, 0.03 mg, 4 h, day 0): 0.0675 ng/mL
O=c1cc[nH]c(=O)[nH]1  terminal half-life (UHPLC-MS; male CD-1 mice, plasma; intravenous, 1 mg/kg, from 4 h postdose): 10 h
O=C(/C=C/c1cccc(S(=O)(=O)Nc2ccccc2)c1)NO  volume of distribution steady-state (human moderate liver dysfunction, plasma; intravenous, 400 mg/m^2, 30 min infusion, cycle 1 day -7): 38.1 L/m²
CCOc1cc(C(C)(C)C)ccc1C1=N[C@@](C)(c2ccc(Cl)cc2)[C@@](C)(c2ccc(Cl)cc2)N1C(=O)N1CCN(CCCS(C)(=O)=O)CC1  Tmax (athymic nude mice, orthotopic GBM, plasma; oral, 100 mg/kg): 2 to 8 h
C#C[C@]1(CO)O[C@@H](n2cnc3c(N)nc(F)nc32)C[C@@H]1O  AUC(0-t) (human, plasma; oral, 100 mg, single dose, fasted): 10.9 µM·h
COc1cccc2c1C(=O)c1c(O)c3c(c(O)c1C2=O)C[C@@](O)(C(=O)CO)C[C@@H]3O[C@H]1C[C@H](N)[C@H](O)[C@H](C)O1  terminal half-life (mouse, E0771 tumour-bearing, kidney; intravenous, 92 µmol/kg): 36 h
O=C(O)[C@H](c1ccccc1Cl)N1CCc2sccc2C1  deviation from nominal (HPLC-MS/MS; feline EDTA plasma; 72 h, 4 °C, storage stability): -11%
CC(C)CC(=O)NCC(=O)O  unbound fraction in plasma (untargeted mass spectrometry; human normal subjects, plasma ultrafiltrate): 30 ± 6%
O=C1CCc2ccc(OCCCCN3CCN(c4cccc(Cl)c4Cl)CC3)cc2N1  terminal half-life (healthy Japanese men, CYP2D6 IM, plasma; oral, 3 mg aripiprazole single, with: fluvoxamine 100 mg/day): 157 ± 19 h
CN1CC[C@@H](NC(=O)Nc2ccc(C#N)cc2)C[C@@H]1c1nc2ccccc2[nH]1  AUC(0-t), unbound (normal hepatic function, plasma; oral, 100 mg single dose, fasted, arithmetic mean): 879 ± 301 ng·h/mL
Cc1cccc(C)c1OCC(=O)N[C@@H](Cc1ccccc1)[C@@H](O)C[C@H](Cc1ccccc1)NC(=O)[C@H](C(C)C)N1CCCNC1=O  free drug permeability (modified PAMPA Franz cell; phosphate buffer with HPMCAS; stock 5 mg/mL, 3 h, 25 °C, 254 nm system, 300 rpm, with: 3% BSA receiver): 25.1 ± 3.6 ×10⁻⁶ cm/s
COc1ccc(-c2oc3c(OC)c(OC)c(OC)c(OC)c3c(=O)c2OC)cc1OC  tissue to peel content ratio (C57BL/6 mouse, male, colon; oral, 1% w/w in diet, 6 weeks, orange peel extract diet; reference: content in orange peel): 0.258%
CCCC[C@H](NC(C)=O)C(=O)N[C@H]1CCC(=O)NC[C@@H](C(=O)N[C@@H](Cc2c[nH]c3ccccc23)C(N)=O)NC(=O)[C@H](CCCNC(=N)N)NC(=O)[C@@H](Cc2ccccc2)NC(=O)[C@H](Cc2c[nH]cn2)NC1=O  Cmax (female rat, plasma; subcutaneous, 5 mg/kg/day, multiple doses, once daily): 1000 ng/mL
O=C(O)/C=C/C(=O)NCCCC[C@@H]1NC(=O)[C@H](CCCCNC(=O)/C=C/C(=O)O)NC1=O  AUC(0-240 min) ratio (human, type 1 or 2 diabetes patients, serum; dose not given, Technosphere inhaled insulin, meal challenge; reference: during URTI over post-URTI): 1.1
COc1cc(OC)c(/C=C/S(=O)(=O)Cc2ccc(OC)c(NCC(=O)O)c2)c(OC)c1  Vss/F (cancer patients, phase I, plasma; oral, 140 mg twice daily, day 1 cycle 1): 1100 ± 424 L
CCc1ccc(Cc2ccc3c(c2)[C@]2(OC3)O[C@H](CO)[C@@H](O)[C@H](O)[C@H]2O)cc1  tissue/plasma ratio (Wistar rat, male, kidney; oral, dose not given, 1 h; reference: kidney over plasma concentration): 848 ± 116
CN(C)C(=O)c1cc2cnc(Nc3ccc(N4CCNCC4)cn3)nc2n1C1CCCC1  AUC(0-24h) (CD1 nude mouse, non-tumour-bearing, plasma (total); oral, 100 mg/kg, microdialysis study): 33200 ± 9380 ng·h/mL
Cc1nc2cccc(OCC(C)(C)C(=O)NC(C)C)c2c(N)c1C(=O)O  AUC(0-t) (female Sprague-Dawley rat, plasma; oral, 100 mg/kg): 279 ng·h/mL
CC[C@H](C)[C@H](NC(=O)[C@H](Cc1ccccc1)NC(=O)[C@H](CCC(=O)O)NC(=O)[C@H](CCCCNC(=O)COCCOCCNC(=O)COCCOCCNC(=O)CC[C@H](NC(=O)CCCCCCCCCCCCCCCCC(=O)O)C(=O)O)NC(=O)[C@H](C)NC(=O)[C@H](C)NC(=O)[C@H](CCC(N)=O)NC(=O)CNC(=O)[C@H](CCC(=O)O)NC(=O)[C@H](CC(C)C)NC(=O)[C@H](Cc1ccc(O)cc1)NC(=O)[C@H](CO)NC(=O)[C@H](CO)NC(=O)[C@@H](NC(=O)[C@H](CC(=O)O)NC(=O)[C@H](CO)NC(=O)[C@@H](NC(=O)[C@H](Cc1ccccc1)NC(=O)[C@@H](NC(=O)CNC(=O)[C@H](CCC(=O)O)NC(=O)C(C)(C)NC(=O)[C@@H](N)Cc1cnc[nH]1)[C@@H](C)O)[C@@H](C)O)C(C)C)C(=O)N[C@@H](C)C(=O)N[C@@H](Cc1c[nH]c2ccccc12)C(=O)N[C@@H](CC(C)C)C(=O)N[C@H](C(=O)N[C@@H](CCCNC(=N)N)C(=O)NCC(=O)N[C@@H](CCCNC(=N)N)C(=O)NCC(=O)O)C(C)C  average steady-state concentration (human highest body weight; 0.5 mg once weekly, 116.8-198.3 kg): 10.5 nmol/L
O=C(O)/C=C/c1ccccc1  measured concentration (rat plasma QC sample; 1 ng/mL nominal, 15 days, -80 °C, low QC level storage stability): 0.96 ± 0.08 ng/mL
CC(C)C[C@H](NC(=O)[C@H](CC(C)C)NC(=O)[C@@H](Cc1c[nH]c2ccccc12)NC(=O)[C@@H](NC(=O)[C@@H](Cc1c[nH]c2ccccc12)NC(=O)[C@@H](N)CCCCN)[C@@H](c1ccccc1)c1c[nH]c2ccccc12)C(N)=O  HPLC retention (RP-HPLC Jupiter Proteo; acetonitrile/water TFA gradient): 58.7 %B
C[C@@H](O)[C@H]1C(=O)N2C(C(=O)O)=C(S[C@@H]3CN[C@H](C(=O)N(C)C)C3)[C@H](C)[C@H]12  time above MIC (microdialysis; pig, Danish Landrace, cancellous bone; intravenous, 1000 mg over 10 min, 450 min dosing interval, with: 0.125 µg/mL MIC; reference: dosing interval): 62%
COc1cc(/C=C/C(=O)CC(=O)/C=C/c2ccc(O)c(OC)c2)ccc1O  brain uptake ratio (I-125 label; C57BL/6J mouse, cerebellum; intranasal vs intraperitoneal, 10 µg/mouse IN, 100 µg/mouse IP, 12 h; reference: intranasal over intraperitoneal): 8.48
NC(=O)OCC(COC(N)=O)c1ccccc1  hepatocyte vacuolization score (Sprague-Dawley rat, male, liver; oral, 1920 mg/kg, 24 h, single high dose; direction not given): 0
CC(C)=CCC[C@](C)(O[C@@H]1O[C@H](CO)[C@@H](O)[C@H](O)[C@H]1O)[C@H]1CC[C@]2(C)[C@@H]1[C@H](O)C[C@@H]1[C@@]3(C)CC[C@H](O[C@@H]4O[C@H](CO)[C@@H](O)[C@H](O)[C@H]4O[C@@H]4O[C@H](CO)[C@@H](O)[C@H](O)[C@H]4O)C(C)(C)[C@@H]3CC[C@]12C  AUC (Sprague-Dawley rat, plasma; oral, 200 mg/kg ginseng extract, after control diet 2 weeks): 8970 ± 380 ng·h/mL
CCN(CC)CCNC(=O)c1c(C)[nH]c(/C=C2\C(=O)Nc3ccc(F)cc32)c1C  maximum trough plasma concentration (human, plasma; oral, 20 mg/m2, day 14): 58.6 ng/mL

Excerpt of the above:
CC#CC(=O)N1CCC[C@H]1c1nc(-c2ccc(C(=O)Nc3ccccn3)cc2)c2c(N)nccn12  AUC increase (moderate hepatic impairment (Child-Pugh B), plasma; oral, 50 mg single; reference: healthy subjects): 1.3 fold
CC(=O)N[C@H](CCNC(=O)c1cc(NC(=O)c2cc(NC(=O)c3cc(NC(=O)c4nccn4C)cn3C)cn2C)cn1C)C(=O)Nc1cn(C)c(C(=O)Nc2cc(C(=O)Nc3cc(C(=O)Nc4cc(C(=O)NCCCN(C)CCCN[14C](=O)c5cccc([14C](=O)O)c5)n(C)c4)n(C)c3)n(C)c2)n1  tissue concentration (NSG mouse, male, LNCaP xenograft, liver; intraperitoneal, 20 nmol/animal, 7 days): 0.27 mg/kg
CCN(c1cc(-c2ccc(CN3CCOCC3)cc2)cc(C(=O)NCc2c(C)cc(C)[nH]c2=O)c1C)C1CCOCC1  discontinuation rate (Japanese patients, relapsed or refractory B-NHL; oral, 800 mg twice daily, tongue squamous cell carcinoma, not treatment related; reference: patients): 14.3%
